{"data": "Assay results collected from several papers", "CA9": "Carbonic anhydrase 9 (CA9, Homo sapiens, UniProt Q16790)", "Tumor necrosis factor receptor superfamily member 9/Nectin-4": "Tumor necrosis factor receptor superfamily member 9/Nectin-4 (Homo sapiens, UniProt Q07011+Q96NY8)", "note": "± gives the spread as reported.", "UniProt Q96NY8, sequence (whole entry, looked up)": "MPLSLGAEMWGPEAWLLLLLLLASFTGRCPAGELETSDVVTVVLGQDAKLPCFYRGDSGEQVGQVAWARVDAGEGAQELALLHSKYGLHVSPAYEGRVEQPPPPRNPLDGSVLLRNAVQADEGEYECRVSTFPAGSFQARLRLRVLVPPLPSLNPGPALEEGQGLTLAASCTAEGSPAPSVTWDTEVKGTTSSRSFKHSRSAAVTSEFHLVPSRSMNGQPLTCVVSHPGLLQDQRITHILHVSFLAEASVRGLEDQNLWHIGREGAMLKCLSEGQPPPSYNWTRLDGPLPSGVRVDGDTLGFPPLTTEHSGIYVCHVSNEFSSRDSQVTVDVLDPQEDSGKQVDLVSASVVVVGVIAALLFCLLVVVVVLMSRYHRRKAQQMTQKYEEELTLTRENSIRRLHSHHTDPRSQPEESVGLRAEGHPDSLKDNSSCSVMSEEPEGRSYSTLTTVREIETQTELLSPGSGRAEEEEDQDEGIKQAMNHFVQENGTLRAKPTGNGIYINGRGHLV", "UniProt Q07011, sequence (whole entry, looked up)": "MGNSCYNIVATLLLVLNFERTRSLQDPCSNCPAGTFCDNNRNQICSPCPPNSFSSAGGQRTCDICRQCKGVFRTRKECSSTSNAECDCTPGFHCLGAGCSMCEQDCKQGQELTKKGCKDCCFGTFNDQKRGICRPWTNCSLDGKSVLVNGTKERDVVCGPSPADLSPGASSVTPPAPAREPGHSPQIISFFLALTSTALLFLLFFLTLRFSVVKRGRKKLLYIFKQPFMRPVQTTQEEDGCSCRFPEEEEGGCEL", "UniProt Q9UBE8, sequence (whole entry, looked up)": "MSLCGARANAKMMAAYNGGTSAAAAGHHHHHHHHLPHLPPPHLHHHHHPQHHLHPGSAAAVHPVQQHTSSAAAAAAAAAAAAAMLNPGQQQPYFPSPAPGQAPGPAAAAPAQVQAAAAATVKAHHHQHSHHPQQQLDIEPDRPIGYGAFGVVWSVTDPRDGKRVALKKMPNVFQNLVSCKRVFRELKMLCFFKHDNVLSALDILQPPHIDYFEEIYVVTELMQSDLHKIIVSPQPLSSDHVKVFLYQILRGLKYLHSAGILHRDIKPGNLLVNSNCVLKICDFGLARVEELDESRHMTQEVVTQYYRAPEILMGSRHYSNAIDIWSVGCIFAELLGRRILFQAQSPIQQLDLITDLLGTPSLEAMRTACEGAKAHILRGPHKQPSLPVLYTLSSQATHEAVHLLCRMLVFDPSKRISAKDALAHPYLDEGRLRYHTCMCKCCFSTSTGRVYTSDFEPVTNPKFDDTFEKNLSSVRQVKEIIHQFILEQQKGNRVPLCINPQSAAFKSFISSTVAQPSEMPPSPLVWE", "UniProt P19490, sequence (whole entry, looked up)": "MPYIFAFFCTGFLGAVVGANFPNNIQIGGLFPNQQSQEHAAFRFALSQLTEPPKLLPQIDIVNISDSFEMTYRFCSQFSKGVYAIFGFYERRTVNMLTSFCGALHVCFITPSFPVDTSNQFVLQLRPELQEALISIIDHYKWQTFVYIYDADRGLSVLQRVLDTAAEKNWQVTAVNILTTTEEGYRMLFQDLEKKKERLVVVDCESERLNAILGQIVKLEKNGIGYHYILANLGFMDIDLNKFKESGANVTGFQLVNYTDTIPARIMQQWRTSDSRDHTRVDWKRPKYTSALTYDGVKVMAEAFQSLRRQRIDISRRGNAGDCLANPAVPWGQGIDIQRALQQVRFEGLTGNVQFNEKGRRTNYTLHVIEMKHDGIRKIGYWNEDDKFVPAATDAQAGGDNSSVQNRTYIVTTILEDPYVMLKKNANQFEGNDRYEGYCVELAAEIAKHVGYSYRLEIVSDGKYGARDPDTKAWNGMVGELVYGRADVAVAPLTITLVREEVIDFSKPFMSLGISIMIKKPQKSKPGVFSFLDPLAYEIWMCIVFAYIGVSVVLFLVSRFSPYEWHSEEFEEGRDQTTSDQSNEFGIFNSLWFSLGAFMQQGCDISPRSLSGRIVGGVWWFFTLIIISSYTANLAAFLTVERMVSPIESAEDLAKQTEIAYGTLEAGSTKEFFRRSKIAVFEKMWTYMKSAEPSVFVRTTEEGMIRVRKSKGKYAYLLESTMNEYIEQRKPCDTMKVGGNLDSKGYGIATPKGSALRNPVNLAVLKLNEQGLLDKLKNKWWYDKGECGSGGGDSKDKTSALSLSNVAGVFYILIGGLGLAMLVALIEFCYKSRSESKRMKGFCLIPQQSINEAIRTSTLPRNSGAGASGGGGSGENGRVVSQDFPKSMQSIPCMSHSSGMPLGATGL", "UniProt P22756, sequence (whole entry, unmodified, looked up)": "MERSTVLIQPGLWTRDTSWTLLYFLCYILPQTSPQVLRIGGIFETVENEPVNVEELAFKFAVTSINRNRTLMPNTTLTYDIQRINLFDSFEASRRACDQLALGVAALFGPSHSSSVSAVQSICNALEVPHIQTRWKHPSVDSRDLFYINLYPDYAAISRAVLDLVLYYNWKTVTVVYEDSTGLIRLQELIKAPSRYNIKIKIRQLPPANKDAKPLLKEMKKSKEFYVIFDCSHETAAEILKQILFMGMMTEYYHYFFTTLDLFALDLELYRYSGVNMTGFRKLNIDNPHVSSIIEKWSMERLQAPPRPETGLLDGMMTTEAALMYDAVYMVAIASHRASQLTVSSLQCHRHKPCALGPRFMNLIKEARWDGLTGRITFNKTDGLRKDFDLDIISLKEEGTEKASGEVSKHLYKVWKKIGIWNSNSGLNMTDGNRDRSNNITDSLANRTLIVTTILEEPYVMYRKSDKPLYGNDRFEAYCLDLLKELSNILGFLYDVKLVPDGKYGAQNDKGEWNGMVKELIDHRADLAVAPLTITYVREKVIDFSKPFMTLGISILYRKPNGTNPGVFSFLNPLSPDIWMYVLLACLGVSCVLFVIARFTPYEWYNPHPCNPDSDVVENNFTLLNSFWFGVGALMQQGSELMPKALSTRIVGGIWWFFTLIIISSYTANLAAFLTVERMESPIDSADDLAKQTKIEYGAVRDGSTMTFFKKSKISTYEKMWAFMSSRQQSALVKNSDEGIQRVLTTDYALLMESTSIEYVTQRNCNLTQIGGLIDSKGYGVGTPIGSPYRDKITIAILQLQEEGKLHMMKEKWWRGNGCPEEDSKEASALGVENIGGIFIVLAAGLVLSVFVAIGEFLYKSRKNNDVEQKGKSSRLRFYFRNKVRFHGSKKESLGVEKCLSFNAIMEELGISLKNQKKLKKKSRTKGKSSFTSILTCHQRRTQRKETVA", "UniProt P08510, sequence (whole entry, unmodified, looked up)": "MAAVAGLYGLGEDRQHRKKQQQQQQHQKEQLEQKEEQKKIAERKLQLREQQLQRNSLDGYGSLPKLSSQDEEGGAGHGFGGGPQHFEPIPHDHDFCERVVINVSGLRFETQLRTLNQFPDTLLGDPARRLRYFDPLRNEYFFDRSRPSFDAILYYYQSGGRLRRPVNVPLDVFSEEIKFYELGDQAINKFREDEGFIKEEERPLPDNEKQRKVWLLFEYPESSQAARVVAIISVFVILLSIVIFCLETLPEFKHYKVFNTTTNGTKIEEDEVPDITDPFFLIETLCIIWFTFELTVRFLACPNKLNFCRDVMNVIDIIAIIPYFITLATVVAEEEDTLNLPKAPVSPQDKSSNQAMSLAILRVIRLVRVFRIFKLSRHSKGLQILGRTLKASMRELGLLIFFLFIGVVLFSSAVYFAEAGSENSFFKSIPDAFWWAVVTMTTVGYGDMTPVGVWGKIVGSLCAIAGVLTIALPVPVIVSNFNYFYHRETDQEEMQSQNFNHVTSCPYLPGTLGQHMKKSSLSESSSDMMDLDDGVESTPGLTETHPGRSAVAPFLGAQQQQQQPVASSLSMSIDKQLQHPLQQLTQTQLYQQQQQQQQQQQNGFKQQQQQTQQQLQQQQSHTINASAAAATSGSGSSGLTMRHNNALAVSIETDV", "UniProt O43193, sequence (whole entry, looked up)": "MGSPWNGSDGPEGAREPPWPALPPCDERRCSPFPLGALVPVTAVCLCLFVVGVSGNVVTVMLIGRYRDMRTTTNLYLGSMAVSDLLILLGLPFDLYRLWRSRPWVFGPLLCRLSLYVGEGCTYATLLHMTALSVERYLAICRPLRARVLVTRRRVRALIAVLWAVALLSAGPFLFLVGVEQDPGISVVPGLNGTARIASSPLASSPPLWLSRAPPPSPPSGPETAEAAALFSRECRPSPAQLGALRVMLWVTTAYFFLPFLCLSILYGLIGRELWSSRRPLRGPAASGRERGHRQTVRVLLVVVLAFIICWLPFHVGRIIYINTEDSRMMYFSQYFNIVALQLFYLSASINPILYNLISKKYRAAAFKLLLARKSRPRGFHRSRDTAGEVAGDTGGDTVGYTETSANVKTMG"}
{"SMILES": "NC(CC1(C(=O)O)CC2OC(CO)C(O)C(N)C2O1)C(=O)O (centres unmarked)", "target or system": "Glutamate receptor ionotropic, kainate 1 (Rattus norvegicus, UniProt P22756, del402-416)", "test": "[3H]kainate displacement", "test system": "HEK-293T/17 membranes", "measurement": "Ki", "value": "7.2 nM"}
{"SMILES": "O=C(Nc1ccc2c(c1)C=CCP(=O)(O)O2)c1cccs1", "target or system": "CA9", "measurement": "Ki", "value": "32.8 nM"}
{"SMILES": "CCCC[C@@H]1NC(=O)[C@H](Cc2ccc(O)cc2)NC(=O)[C@@H]2CCCN2C(=O)[C@H](CC(=O)O)NC(=O)[C@H](C)NC(=O)[C@H](Cc2ccccc2)NC(=O)[C@@H]2CSCCC(=O)N3CN(CN(C3)C(=O)CCSC[C@@H](C(=O)N[C@@H](C)C(N)=O)NC1=O)C(=O)CCSC[C@H](NC(C)=O)C(=O)N[C@@H](CC(C)(C)C)C(=O)N1CCC[C@H]1C(=O)N[C@@H](CCC(=O)O)C(=O)N[C@H](CCCCNC(=O)CCc1cn(CCOCCOCCCOCCOCCOCCOCCOCCOCCOCCOCCNC(=O)CCOCC(COCCC(=O)NCCOCCOCCOCCOCCOCCOCCOCCOCCOCCOCCn3cc(CCC(=O)NCCCC[C@H]4NC(=O)[C@H](CCC(=O)O)NC(=O)[C@@H]5CCCN5C(=O)[C@H](CC(C)(C)C)NC(=O)[C@@H](NC(C)=O)CSCCC(=O)N5CN6CN(C5)C(=O)CCSC[C@H](NC(=O)[C@H](Cc5ccc(O)cc5)NC(=O)[C@@H]5CCCN5C4=O)C(=O)N[C@@H](Cc4ccccc4)C(=O)N[C@@H](C)C(=O)N[C@@H](CC(=O)O)C(=O)N4CCC[C@H]4C(=O)N[C@@H](Cc4ccc(O)cc4)C(=O)N[C@@H](CCCC)C(=O)N[C@H](C(=O)N[C@@H](C)C(N)=O)CSCCC6=O)nn3)(COCCC(=O)NCCOCCOCCOCCOCCOCCOCCOCCOCCOCCOCCn3cc(CCC(=O)NCCCC[C@H]4NC(=O)[C@H](CCC(=O)O)NC(=O)[C@@H]5CCCN5C(=O)[C@H](CC(C)(C)C)NC(=O)[C@@H](NC(C)=O)CSCCC(=O)N5CN6CN(C5)C(=O)CCSC[C@H](NC(=O)[C@H](Cc5ccc(O)cc5)NC(=O)[C@@H]5CCCN5C4=O)C(=O)N[C@@H](Cc4ccccc4)C(=O)N[C@@H](C)C(=O)N[C@@H](CC(=O)O)C(=O)N4CCC[C@H]4C(=O)N[C@@H](Cc4ccc(O)cc4)C(=O)N[C@@H](CCCC)C(=O)N[C@H](C(=O)N[C@@H](C)C(N)=O)CSCCC6=O)nn3)COCCC(=O)NCCOCCOCCOCCOCCOCCOCCOCCOCCOCCOCCn3cc(CCC(=O)NCCC(=O)N[C@H]4CSCCC(=O)N5CN6CN(C5)C(=O)CCSC[C@H](NC(=O)[C@@H](CC(=O)O)NC(=O)[C@H](Cc5cccc7ccccc57)NC(=O)[C@@H]5CCCN5C4=O)C(=O)N[C@@H](CCSC)C(=O)N[C@@H](CCCCNC(=N)N)C(=O)N[C@@H](CC(=O)O)C(=O)N[C@@H](Cc4c[nH]c5ccccc45)C(=O)N[C@@H](CO)C(=O)N[C@@H]([C@@H](C)O)C(=O)N4CCC[C@H]4C(=O)N4C[C@H](O)C[C@H]4C(=O)N[C@@H](Cc4c[nH]c5ccccc45)C(=O)N[C@H](C(N)=O)CSCCC6=O)nn3)nn1)C(=O)N1CCC[C@H]1C(=O)N[C@@H](Cc1ccc(O)cc1)C(=O)N2", "target or system": "Tumor necrosis factor receptor superfamily member 9/Nectin-4", "test": "reporter gene, agonist", "test system": "HT-1376 coculture with reporter cells", "measurement": "EC50", "value": "0.17 nM"}
{"SMILES": "COc1ccccc1-c1ccc(CN2CCC(NC(=O)Cc3ccc(F)cc3)C2)cc1 (centres unmarked)", "target or system": "Vero-E6", "test": "CellTiter-Glo ATP", "conditions": "72 h, first round 5-point", "how to read": "reference: DMSO 0%, hyamine -100%, more negative, more toxic", "measurement": "maximum response", "value": "-0.987%"}
{"SMILES": "C[C@H]1CN(c2n[nH]c3nc(N[C@H]4CC[C@H](NS(=O)(=O)CCC(F)(F)F)CC4)ncc23)CCO1", "target or system": "Serine/threonine-protein kinase NLK (NLK, Homo sapiens, UniProt Q9UBE8)", "test": "competitor, Kinobeads competition", "test system": "HEK293, K562, placenta extract", "measurement": "IC50", "value": "620 nM"}
{"SMILES": "CCCC[C@@H]1NC(=O)[C@H](Cc2ccc(O)cc2)NC(=O)[C@@H]2CCCN2C(=O)[C@H](CC(=O)O)NC(=O)[C@H](C)NC(=O)[C@H](Cc2ccccc2)NC(=O)[C@@H]2CSCCC(=O)N3CN(CN(C3)C(=O)CCSC[C@@H](C(=O)N[C@@H](C)C(N)=O)NC1=O)C(=O)CCSC[C@H](NC(C)=O)C(=O)N[C@@H](CC(C)(C)C)C(=O)N1CCC[C@H]1C(=O)N[C@@H](CCC(=O)O)C(=O)N[C@H](CCCCNC(=O)CCc1cn(CCOCCOCCOCCOCCOCCC(=O)NCCCC[C@H]3NC(=O)[C@H](Cc4cccc5ccccc45)NC(=O)[C@@H]4CCCN4C(=O)[C@@H](NC(C)=O)CSCCC(=O)N4CN5CN(C4)C(=O)CCSC[C@H](NC3=O)C(=O)N[C@@H](CCSC)C(=O)N[C@@H](CCCCNC(=N)N)C(=O)N[C@@H](CCC(=O)O)C(=O)N[C@@H](Cc3c[nH]c4ccccc34)C(=O)N[C@@H](CO)C(=O)N[C@@H]([C@@H](C)O)C(=O)N3CCC[C@H]3C(=O)N3C[C@H](O)C[C@H]3C(=O)N[C@@H](Cc3c[nH]c4ccccc34)C(=O)N[C@H](C(N)=O)CSCCC5=O)nn1)C(=O)N1CCC[C@H]1C(=O)N[C@@H](Cc1ccc(O)cc1)C(=O)N2", "target or system": "Tumor necrosis factor receptor superfamily member 9/Nectin-4", "test": "reporter gene, agonist", "test system": "HT-1376 coculture with reporter cells", "measurement": "EC50", "value": "1.17 nM"}
{"SMILES": "COc1ccc(-c2cn3c(n2)sc2cc(C(=O)NCCCN4CCCCCC4)ccc23)cc1", "target or system": "Vero-E6", "test": "CellTiter-Glo ATP", "conditions": "72 h, retest 8-point duplicates", "how to read": "reference: DMSO 0%, hyamine -100%, more negative, more toxic", "measurement": "maximum response", "value": "-26.3%"}
{"SMILES": "O=C(Nc1ccc2c(c1)C=CCP(=O)(O)O2)c1ccc(Cl)cc1", "target or system": "CA9", "measurement": "Ki", "value": "158 nM"}
{"SMILES": "CSCC[C@H](N)C(=O)N[C@@H](C)C(=O)N[C@@H](C)C(=O)N[C@H](C(=O)N[C@@H](C)C(=O)NCC(=O)N[C@@H](CC(C)C)C(=O)N[C@@H](Cc1ccc(O)cc1)C(=O)NCC(=O)N[C@@H](CC(C)C)C(=O)NCC(=O)N[C@@H](CCC(=O)O)C(=O)N[C@@H](CC(=O)O)C(=O)N[C@@H](CCCNC(=N)N)C(=O)N[C@@H](CCC(N)=O)C(=O)N[C@@H](Cc1c[nH]cn1)C(=O)N[C@@H](CCCNC(=N)N)C(=O)N[C@@H](CCCCN)C(=O)N[C@@H](CCCCN)C(=O)N[C@@H](CCC(N)=O)C(N)=O)C(C)C", "target or system": "Sh, DEL6-46 (Drosophila melanogaster, UniProt P08510)", "test": "ion current, blocker, inside-out patch clamp", "conditions": "+50 mV", "measurement": "Kd", "value": "4200 nM"}
{"SMILES": "O=C(Nc1cccc(Cl)c1)Nc1ccc2c(c1)C=CCP(=O)(O)O2", "target or system": "CA9", "measurement": "Ki", "value": "52.9 nM"}
{"SMILES": "O=C(Nc1nc2nc(-c3ccccc3)cc(C(F)(F)F)c2s1)c1cc2ccccc2o1", "target or system": "Genome polyprotein, NS2B-NS3 protease (ZIKV, UniProt A0A024B7W1)", "test": "inhibitor", "measurement": "IC50", "value": "830 ± 50 nM"}
{"SMILES": "COc1cc(Nc2ncc(F)c(Nc3ccc4c(n3)NC(=O)C(C)(C)O4)n2)cc(OC)c1OC", "target or system": "Motilin receptor (MLNR, Homo sapiens, UniProt O43193)", "measurement": "IC50", "value": "> 10000 nM"}
{"SMILES": "CCCC[C@@H]1NC(=O)[C@H](Cc2ccc(O)cc2)NC(=O)[C@@H]2CCCN2C(=O)[C@H](CC(=O)O)NC(=O)[C@H](C)NC(=O)[C@H](Cc2ccccc2)NC(=O)[C@@H]2CSCCC(=O)N3CN(CN(C3)C(=O)CCSC[C@@H](C(=O)N[C@@H](C)C(N)=O)NC1=O)C(=O)CCSC[C@H](NC(=O)[C@H](C)NC(C)=O)C(=O)N[C@@H]([C@@H](C)CC)C(=O)N[C@@H](CCC(=O)O)C(=O)N[C@@H](CCC(=O)O)C(=O)N[C@H](CCCCNC(=O)CCc1cn(CCOCCOCCOCCN(CCOCCOCCOCCC(=O)N[C@H]3CSCCC(=O)N4CN5CN(C4)C(=O)CCSC[C@H](NC(=O)[C@@H](CC(=O)O)NC(=O)[C@H](Cc4cccc6ccccc46)NC(=O)[C@@H]4CCCN4C3=O)C(=O)N[C@@H](CCSC)C(=O)N[C@@H](CCCCNC(=N)N)C(=O)N[C@@H](CC(=O)O)C(=O)N[C@@H](Cc3c[nH]c4ccccc34)C(=O)N[C@@H](CO)C(=O)N[C@@H]([C@@H](C)O)C(=O)N3CCC[C@H]3C(=O)N3C[C@H](O)C[C@H]3C(=O)N[C@@H](Cc3c[nH]c4ccccc34)C(=O)N[C@H](C(N)=O)CSCCC5=O)CCOCCOCCOCCn3cc(CCC(=O)NCCCC[C@H]4NC(=O)[C@H](CCC(=O)O)NC(=O)[C@H](CCC(=O)O)NC(=O)[C@H]([C@@H](C)CC)NC(=O)[C@@H](NC(=O)[C@H](C)NC(C)=O)CSCCC(=O)N5CN6CN(C5)C(=O)CCSC[C@H](NC(=O)[C@H](Cc5ccc(O)cc5)NC(=O)[C@H](CCC(N)=O)NC4=O)C(=O)N[C@@H](Cc4ccccc4)C(=O)N[C@@H](C)C(=O)N[C@@H](CC(=O)O)C(=O)N4CCC[C@H]4C(=O)N[C@@H](Cc4ccc(O)cc4)C(=O)N[C@@H](CCCC)C(=O)N[C@H](C(=O)N[C@@H](C)C(N)=O)CSCCC6=O)nn3)nn1)C(=O)N[C@@H](CCC(N)=O)C(=O)N[C@@H](Cc1ccc(O)cc1)C(=O)N2", "target or system": "Tumor necrosis factor receptor superfamily member 9/Nectin-4", "test": "reporter gene, agonist", "test system": "HT-1376 coculture with reporter cells", "measurement": "EC50", "value": "0.9 nM"}
{"SMILES": "COCC1OC2CC(CC(N)C(=O)O)(C(=O)O)OC2C(O)C1O (centres unmarked)", "target or system": "Glutamate receptor 1 (Gria1, Rattus norvegicus, UniProt P19490)", "test": "[3H]AMPA displacement", "test system": "HEK-293T/17 membranes", "measurement": "Ki", "value": "> 10000 nM"}
{"note": "Some of these lines once more:"}
{"SMILES": "CCCC[C@@H]1NC(=O)[C@H](Cc2ccc(O)cc2)NC(=O)[C@@H]2CCCN2C(=O)[C@H](CC(=O)O)NC(=O)[C@H](C)NC(=O)[C@H](Cc2ccccc2)NC(=O)[C@@H]2CSCCC(=O)N3CN(CN(C3)C(=O)CCSC[C@@H](C(=O)N[C@@H](C)C(N)=O)NC1=O)C(=O)CCSC[C@H](NC(=O)[C@H](C)NC(C)=O)C(=O)N[C@@H]([C@@H](C)CC)C(=O)N[C@@H](CCC(=O)O)C(=O)N[C@@H](CCC(=O)O)C(=O)N[C@H](CCCCNC(=O)CCc1cn(CCOCCOCCOCCN(CCOCCOCCOCCC(=O)N[C@H]3CSCCC(=O)N4CN5CN(C4)C(=O)CCSC[C@H](NC(=O)[C@@H](CC(=O)O)NC(=O)[C@H](Cc4cccc6ccccc46)NC(=O)[C@@H]4CCCN4C3=O)C(=O)N[C@@H](CCSC)C(=O)N[C@@H](CCCCNC(=N)N)C(=O)N[C@@H](CC(=O)O)C(=O)N[C@@H](Cc3c[nH]c4ccccc34)C(=O)N[C@@H](CO)C(=O)N[C@@H]([C@@H](C)O)C(=O)N3CCC[C@H]3C(=O)N3C[C@H](O)C[C@H]3C(=O)N[C@@H](Cc3c[nH]c4ccccc34)C(=O)N[C@H](C(N)=O)CSCCC5=O)CCOCCOCCOCCn3cc(CCC(=O)NCCCC[C@H]4NC(=O)[C@H](CCC(=O)O)NC(=O)[C@H](CCC(=O)O)NC(=O)[C@H]([C@@H](C)CC)NC(=O)[C@@H](NC(=O)[C@H](C)NC(C)=O)CSCCC(=O)N5CN6CN(C5)C(=O)CCSC[C@H](NC(=O)[C@H](Cc5ccc(O)cc5)NC(=O)[C@H](CCC(N)=O)NC4=O)C(=O)N[C@@H](Cc4ccccc4)C(=O)N[C@@H](C)C(=O)N[C@@H](CC(=O)O)C(=O)N4CCC[C@H]4C(=O)N[C@@H](Cc4ccc(O)cc4)C(=O)N[C@@H](CCCC)C(=O)N[C@H](C(=O)N[C@@H](C)C(N)=O)CSCCC6=O)nn3)nn1)C(=O)N[C@@H](CCC(N)=O)C(=O)N[C@@H](Cc1ccc(O)cc1)C(=O)N2", "target or system": "Tumor necrosis factor receptor superfamily member 9/Nectin-4", "test": "reporter gene, agonist", "test system": "HT-1376 coculture with reporter cells", "measurement": "EC50", "value": "0.9 nM"}
{"SMILES": "COCC1OC2CC(CC(N)C(=O)O)(C(=O)O)OC2C(O)C1O (centres unmarked)", "target or system": "Glutamate receptor 1 (Gria1, Rattus norvegicus, UniProt P19490)", "test": "[3H]AMPA displacement", "test system": "HEK-293T/17 membranes", "measurement": "Ki", "value": "> 10000 nM"}
